# Measurements collected from several papers.
# Cell line: EKVX
SMILES,test,conditions,how to read,quantity,result
O=c1ccn(Cc2cn(-c3cc4ccccc4oc3=O)nn2)c(=O)[nH]1,NCI60 single-dose screen,10 µM,,growth percentage,102%
COc1ccc(OC)c(-c2nc3ccc(-c4nc5ccc(N6CCN(C)CC6)cc5[nH]4)cc3[nH]2)c1,SRB,"10 µM, 48 h",,growth percent,115%
O=C(Nc1nnc2n3c(=S)[nH][nH]c3nc(-c3ccc(Cl)cc3)c1-2)c1ccccc1,SRB,"10 µM, NCI60 single-dose screen",reference: untreated,cell growth,98.4%
CCCCN1CCN(c2ccc3[nH]c(-c4ccc5[nH]c(-c6cc(OC)c(OC)c(OC)c6)nc5c4)nc3c2)CC1,SRB,"10 µM, 48 h",,growth percent,106%
Cc1cc(=O)[nH]c(=O)n1Cc1cn(-c2c3ccccc3nc3ccccc23)nn1,NCI60 single-dose screen,10 µM,,growth percentage,103%
O=C(Nc1nnc2[nH]c(=S)[nH]c(-c3ccc(Cl)cc3)c1-2)c1ccccc1,SRB,"10 µM, NCI60 single-dose screen",reference: untreated,cell growth,92.7%
CCCN1CCN(c2ccc3[nH]c(-c4ccc5[nH]c(-c6cc(OC)c(OC)c(OC)c6)nc5c4)nc3c2)CC1,SRB,"10 µM, 48 h",,growth percent,109%
CCCCCCCCCCCCCCCCCCOc1ccc(CC(=O)OCC[N+]2(C)CCOCC2)cc1,SRB,10 µM,,growth inhibition,< 0%
NNc1nc(-c2ccc(Cl)cc2)c2c(NC(=O)c3ccccc3)nnc-2[nH]1,SRB,"10 µM, NCI60 single-dose screen",reference: untreated,cell growth,104%
CCCCCCCCCCCCCCCCCCOc1ccc(CC(=O)OCC[N+](C)(C)C)cc1,SRB,10 µM,,growth inhibition,< 0%
C#C[C@@]1(O)[C@@H](CO)O[C@@H](n2ccc3c(N)ncnc32)[C@@H]1O,SRB,NCI-60 screen,,TGI,5.43 µM
CCCC(CCC)C(=O)OCc1cn(-c2c3ccccc3nc3ccccc23)nn1,NCI60 single-dose screen,10 µM,,growth percentage,101%
CCN(CC)c1ccc(C=NNC(=O)CSc2nc3ccccc3c(=O)n2Cc2ccc(S(N)(=O)=O)cc2)c(O)c1,NCI five-dose screen,,,TGI,> 100 µM
Cc1n[nH]c2nc(-c3ccc(Cl)cc3)c3c(NC(=O)c4ccccc4)nnc-3n12,SRB,"10 µM, NCI60 single-dose screen",reference: untreated,cell growth,102%
Cc1cc(C)n(C(=S)[S][Au][PH](CCCCCC[PH]([Au][S]C(=S)n2nc(C)cc2C)(c2ccccc2)c2ccccc2)(c2ccccc2)c2ccccc2)n1,"cell growth, NCI-60 screen",non-small cell lung cancer,,log10 TGI,> -4
CCOC(=O)CSc1nc(-c2ccc(Cl)cc2)c2c(NC(=O)c3ccccc3)nnc-2[nH]1,SRB,"10 µM, NCI60 single-dose screen",reference: untreated,cell growth,100%
CCCCN1CCN(c2ccc3[nH]c(-c4ccc5[nH]c(-c6ccc(OCC)cc6)nc5c4)nc3c2)CC1,SRB,"10 µM, 48 h",,growth percent,92.9%
C#C[C@@]1(O)[C@@H](CO)O[C@@H](n2cc(F)c3c(N)ncnc32)[C@@H]1O,SRB,NCI-60 screen,,TGI,11.3 µM
CCCCN1CCN(c2ccc3[nH]c(-c4ccc5[nH]c(-c6ccc(C(F)(F)F)cc6)nc5c4)nc3c2)CC1,SRB,"10 µM, 48 h",,growth percent,-72.4%
Cn1cncc1C1=CN(c2ncnc3[nH]cnc23)CCS1,,lung cancer,,GI50,27.5 µM
Cc1cc(=O)[nH]n1-c1nc(-c2ccc(Cl)cc2)c2c(NC(=O)c3ccccc3)nnc-2[nH]1,SRB,"10 µM, NCI60 single-dose screen",reference: untreated,cell growth,98.5%
CCCN1CCN(c2ccc3[nH]c(-c4ccc5[nH]c(-c6ccc(OCC)c(OCC)c6)nc5c4)nc3c2)CC1,SRB,"10 µM, 48 h",,growth percent,-3.15%

# Repeated from above:
SMILES,test,conditions,how to read,quantity,result
CCOC(=O)CSc1nc(-c2ccc(Cl)cc2)c2c(NC(=O)c3ccccc3)nnc-2[nH]1,SRB,"10 µM, NCI60 single-dose screen",reference: untreated,cell growth,100%
C#C[C@@]1(O)[C@@H](CO)O[C@@H](n2cc(F)c3c(N)ncnc32)[C@@H]1O,SRB,NCI-60 screen,,TGI,11.3 µM
Cc1cc(C)n(C(=S)[S][Au][PH](CCCCCC[PH]([Au][S]C(=S)n2nc(C)cc2C)(c2ccccc2)c2ccccc2)(c2ccccc2)c2ccccc2)n1,"cell growth, NCI-60 screen",non-small cell lung cancer,,log10 TGI,> -4
